Results of several laboratories.
Each line is one published result; not all experiments were run side by side.
UCHL1: Ubiquitin carboxyl-terminal hydrolase isozyme L1 (UCHL1, Homo sapiens, UniProt P09936)
UniProt P09936, sequence (whole entry, looked up): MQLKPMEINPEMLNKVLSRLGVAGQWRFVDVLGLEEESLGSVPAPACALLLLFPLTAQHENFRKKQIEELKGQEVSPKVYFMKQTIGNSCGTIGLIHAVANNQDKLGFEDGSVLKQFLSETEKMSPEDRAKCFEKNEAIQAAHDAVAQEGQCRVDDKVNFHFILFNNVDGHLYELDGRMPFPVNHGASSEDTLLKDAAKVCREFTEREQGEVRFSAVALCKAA

Cc1c(C(=O)O)ccc2c3n(nc12)[C@@H]1[C@H](C3)N(CC2CC2)[C@@]2(C(=O)Nc3cc(Cl)ccc32)[C@H]1c1cccc(Cl)c1F — adverse event incidence (phase Ia trial, item: Diarrhea; cancer patients; oral, dose not given, all patients grade ≥3): 1.9%
FC(F)(F)c1ccc(CNc2ccc(Cc3c[nH]c4ncc(Cl)cc34)cn2)cn1 — adverse event incidence (item: Nausea; patients with advanced solid tumours; oral, dose not given, grade 1 and 2, possibly related to drug): 30%
CC(C)n1c(Nc2cccnc2)nc2cnc(Nc3ccc(N4CCN(C)CC4)cc3)nc21 — adverse event incidence (item: Dizziness; healthy male subjects; oral, 100 mg, with: gemfibrozil): 0%
C#CCN1C(=O)C(O)(CC(=O)c2ccc(OC)c([N+](=O)[O-])c2)c2ccccc21 (stereo not shown) — labelling (UCHL1; covalent, intact protein LC-MS; 12.5 µM): 25.8%
Cc1ccc(Sc2ccccc2N2CCNCC2)c(C)c1 — adverse event incidence (TEAE Diarrhea; elderly men; oral, 10 mg single dose): 0%
CC[C@H](C)CCCCC(=O)N[C@@H](CCN)C(=O)N[C@H](C(=O)N[C@@H](CCN)C(=O)N[C@H]1CCNC(=O)[C@H]([C@@H](C)O)NC(=O)[C@H](CCN)NC(=O)[C@H](CCN)NC(=O)[C@H](CC(C)C)NC(=O)[C@@H](Cc2ccccc2)NC(=O)[C@H](CCN)NC1=O)[C@@H](C)O — adverse event incidence (item: dry mouth; long-term IHD patients; intravenous, 0.75 mg/kg): 0%
CC(=O)O[C@H]1C(=O)[C@@]2(C)[C@H]([C@H](OC(=O)c3ccccc3)[C@]3(O)C[C@H](OC(=O)[C@H](O)[C@@H](NC(=O)c4ccccc4)c4ccccc4)C(C)=C1C3(C)C)[C@]1(OC(C)=O)CO[C@@H]1C[C@@H]2O — adverse event incidence (item: Dysgeusia; patients with advanced solid tumours; intravenous, dose not given, grade 3 and 4, possibly related to drug): 0%
O=C1CCc2ccc(OCCCCN3CCN(c4cccc(Cl)c4Cl)CC3)cc2N1 — adverse event incidence (item: Hypotension; genotyped patients, CYP2D6 intermediate metabolizers; dose not given, long-acting oral or depot): 1.8%
CNC(=O)c1ccc(-c2cnc3ncc(Cc4ccc5ncccc5c4)n3n2)cc1F — adverse event incidence (phase 1 clinical trial, item: blood creatinine increased; other expansion cohort; oral, 600 mg twice daily, grade 3 or 4): 0%
N#CC(=Cc1ccc(OC(F)F)c(Cl)c1)C(N)=O — labelling (UCHL1; covalent, intact protein LC-MS; 12.5 µM): 33%

For quick reference, copied from above:
O=C1CCc2ccc(OCCCCN3CCN(c4cccc(Cl)c4Cl)CC3)cc2N1 — adverse event incidence (item: Hypotension; genotyped patients, CYP2D6 intermediate metabolizers; dose not given, long-acting oral or depot): 1.8%
